Measured values pooled from the literature.
Compare with care: the assays were run in different laboratories. Numbers after ± are the reported error.
IRAK4: Interleukin-1 receptor-associated kinase 4 (IRAK4, Homo sapiens, UniProt Q9NWZ3)
UniProt Q9NWZ3, sequence (whole entry, looked up): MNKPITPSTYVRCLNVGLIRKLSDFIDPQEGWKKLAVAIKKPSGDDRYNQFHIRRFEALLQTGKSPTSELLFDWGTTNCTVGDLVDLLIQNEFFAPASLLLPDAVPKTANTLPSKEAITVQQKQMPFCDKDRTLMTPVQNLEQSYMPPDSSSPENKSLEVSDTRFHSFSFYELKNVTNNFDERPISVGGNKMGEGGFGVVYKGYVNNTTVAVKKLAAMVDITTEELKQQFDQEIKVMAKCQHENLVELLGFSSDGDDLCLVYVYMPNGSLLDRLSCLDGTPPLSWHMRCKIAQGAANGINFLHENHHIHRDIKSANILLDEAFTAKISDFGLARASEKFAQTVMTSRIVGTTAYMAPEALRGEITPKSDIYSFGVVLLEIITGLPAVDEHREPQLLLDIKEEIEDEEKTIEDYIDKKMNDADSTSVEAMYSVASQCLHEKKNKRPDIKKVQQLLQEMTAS
VCP: Transitional endoplasmic reticulum ATPase (VCP, Homo sapiens, UniProt P55072)
UniProt P55072, sequence (whole entry, looked up): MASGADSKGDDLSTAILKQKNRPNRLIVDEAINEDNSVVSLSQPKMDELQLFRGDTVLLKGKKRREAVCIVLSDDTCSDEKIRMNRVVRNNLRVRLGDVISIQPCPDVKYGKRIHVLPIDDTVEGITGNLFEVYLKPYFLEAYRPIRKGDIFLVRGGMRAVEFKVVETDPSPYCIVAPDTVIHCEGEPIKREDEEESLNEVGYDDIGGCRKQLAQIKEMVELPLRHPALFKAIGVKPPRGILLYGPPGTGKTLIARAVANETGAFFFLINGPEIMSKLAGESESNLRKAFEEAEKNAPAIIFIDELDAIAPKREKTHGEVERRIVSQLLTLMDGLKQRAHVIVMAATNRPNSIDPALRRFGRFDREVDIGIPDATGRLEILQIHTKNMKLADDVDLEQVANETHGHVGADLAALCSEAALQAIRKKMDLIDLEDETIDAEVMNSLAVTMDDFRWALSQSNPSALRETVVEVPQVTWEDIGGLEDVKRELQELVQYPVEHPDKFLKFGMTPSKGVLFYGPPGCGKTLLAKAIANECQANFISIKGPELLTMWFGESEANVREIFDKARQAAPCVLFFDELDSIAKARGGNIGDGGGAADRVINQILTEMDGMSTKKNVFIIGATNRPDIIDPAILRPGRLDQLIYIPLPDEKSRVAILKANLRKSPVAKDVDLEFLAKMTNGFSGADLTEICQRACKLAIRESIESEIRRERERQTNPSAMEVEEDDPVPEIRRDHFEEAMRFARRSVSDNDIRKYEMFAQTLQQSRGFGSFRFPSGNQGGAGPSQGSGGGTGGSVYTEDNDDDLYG
UniProt P08183, sequence (whole entry, looked up): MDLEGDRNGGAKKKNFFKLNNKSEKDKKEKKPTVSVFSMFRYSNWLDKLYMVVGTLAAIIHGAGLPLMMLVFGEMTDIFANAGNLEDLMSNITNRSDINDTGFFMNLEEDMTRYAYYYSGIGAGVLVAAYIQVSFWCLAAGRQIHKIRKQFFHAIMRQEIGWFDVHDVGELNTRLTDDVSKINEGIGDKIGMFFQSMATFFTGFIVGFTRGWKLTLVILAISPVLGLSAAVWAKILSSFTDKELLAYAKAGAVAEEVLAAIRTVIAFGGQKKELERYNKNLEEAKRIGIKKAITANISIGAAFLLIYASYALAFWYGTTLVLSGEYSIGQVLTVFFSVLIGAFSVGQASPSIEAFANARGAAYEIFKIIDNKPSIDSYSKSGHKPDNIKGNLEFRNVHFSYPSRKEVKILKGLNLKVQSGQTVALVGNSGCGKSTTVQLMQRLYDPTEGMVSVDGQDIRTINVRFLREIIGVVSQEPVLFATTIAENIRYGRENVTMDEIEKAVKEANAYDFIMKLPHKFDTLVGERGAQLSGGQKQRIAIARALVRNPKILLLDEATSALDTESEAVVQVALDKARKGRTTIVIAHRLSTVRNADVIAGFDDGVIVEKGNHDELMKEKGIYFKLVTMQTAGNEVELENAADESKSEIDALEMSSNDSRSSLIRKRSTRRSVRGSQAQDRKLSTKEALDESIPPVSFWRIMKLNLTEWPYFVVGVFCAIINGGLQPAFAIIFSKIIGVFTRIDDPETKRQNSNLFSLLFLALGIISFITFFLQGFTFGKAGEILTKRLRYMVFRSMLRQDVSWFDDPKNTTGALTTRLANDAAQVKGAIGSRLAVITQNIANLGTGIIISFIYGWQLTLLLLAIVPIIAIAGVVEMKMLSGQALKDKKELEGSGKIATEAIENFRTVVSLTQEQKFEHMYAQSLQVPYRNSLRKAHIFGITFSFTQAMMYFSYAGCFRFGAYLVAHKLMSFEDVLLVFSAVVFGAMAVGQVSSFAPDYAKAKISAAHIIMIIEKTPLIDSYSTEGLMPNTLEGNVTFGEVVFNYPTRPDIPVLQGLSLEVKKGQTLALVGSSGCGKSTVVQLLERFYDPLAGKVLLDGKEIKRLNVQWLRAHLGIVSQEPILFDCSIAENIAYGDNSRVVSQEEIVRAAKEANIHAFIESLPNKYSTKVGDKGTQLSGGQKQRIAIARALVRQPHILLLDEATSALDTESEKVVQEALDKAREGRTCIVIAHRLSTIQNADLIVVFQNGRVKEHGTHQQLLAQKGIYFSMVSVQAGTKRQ
UniProt P37173, sequence (whole entry, looked up): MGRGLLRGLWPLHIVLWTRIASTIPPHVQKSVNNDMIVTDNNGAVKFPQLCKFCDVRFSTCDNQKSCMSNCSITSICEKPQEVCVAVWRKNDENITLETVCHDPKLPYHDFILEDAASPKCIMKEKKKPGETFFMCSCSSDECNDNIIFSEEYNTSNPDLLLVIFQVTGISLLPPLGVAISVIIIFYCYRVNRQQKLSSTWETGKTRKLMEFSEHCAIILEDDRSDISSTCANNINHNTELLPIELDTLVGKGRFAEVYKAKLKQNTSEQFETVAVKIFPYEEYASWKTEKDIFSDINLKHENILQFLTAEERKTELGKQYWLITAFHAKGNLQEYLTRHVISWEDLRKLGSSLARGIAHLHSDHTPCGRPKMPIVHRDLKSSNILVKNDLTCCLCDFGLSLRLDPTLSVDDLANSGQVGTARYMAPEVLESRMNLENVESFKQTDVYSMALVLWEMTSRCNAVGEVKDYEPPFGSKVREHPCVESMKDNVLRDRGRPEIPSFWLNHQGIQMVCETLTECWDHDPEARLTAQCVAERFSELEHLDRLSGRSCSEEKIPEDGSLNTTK
UniProt Q9R1P1, sequence (whole entry, looked up): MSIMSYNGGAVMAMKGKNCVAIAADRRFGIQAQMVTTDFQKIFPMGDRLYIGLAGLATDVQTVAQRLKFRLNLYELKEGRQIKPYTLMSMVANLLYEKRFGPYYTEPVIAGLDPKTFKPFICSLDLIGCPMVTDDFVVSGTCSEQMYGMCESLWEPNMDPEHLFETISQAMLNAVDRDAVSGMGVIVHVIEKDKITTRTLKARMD
UniProt P00742, sequence (whole entry, looked up): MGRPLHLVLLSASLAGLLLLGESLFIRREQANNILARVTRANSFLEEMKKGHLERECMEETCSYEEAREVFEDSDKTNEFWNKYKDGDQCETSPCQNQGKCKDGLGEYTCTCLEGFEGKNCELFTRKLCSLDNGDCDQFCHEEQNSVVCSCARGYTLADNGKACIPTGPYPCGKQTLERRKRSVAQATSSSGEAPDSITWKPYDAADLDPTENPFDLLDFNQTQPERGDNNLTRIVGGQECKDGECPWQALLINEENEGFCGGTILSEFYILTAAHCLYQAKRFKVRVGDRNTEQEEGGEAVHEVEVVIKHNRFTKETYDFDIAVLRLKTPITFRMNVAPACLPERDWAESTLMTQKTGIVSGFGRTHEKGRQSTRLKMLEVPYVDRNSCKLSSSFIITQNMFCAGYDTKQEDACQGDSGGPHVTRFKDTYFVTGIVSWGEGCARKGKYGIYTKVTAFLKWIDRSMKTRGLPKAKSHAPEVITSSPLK
UniProt P25098, sequence (whole entry, looked up): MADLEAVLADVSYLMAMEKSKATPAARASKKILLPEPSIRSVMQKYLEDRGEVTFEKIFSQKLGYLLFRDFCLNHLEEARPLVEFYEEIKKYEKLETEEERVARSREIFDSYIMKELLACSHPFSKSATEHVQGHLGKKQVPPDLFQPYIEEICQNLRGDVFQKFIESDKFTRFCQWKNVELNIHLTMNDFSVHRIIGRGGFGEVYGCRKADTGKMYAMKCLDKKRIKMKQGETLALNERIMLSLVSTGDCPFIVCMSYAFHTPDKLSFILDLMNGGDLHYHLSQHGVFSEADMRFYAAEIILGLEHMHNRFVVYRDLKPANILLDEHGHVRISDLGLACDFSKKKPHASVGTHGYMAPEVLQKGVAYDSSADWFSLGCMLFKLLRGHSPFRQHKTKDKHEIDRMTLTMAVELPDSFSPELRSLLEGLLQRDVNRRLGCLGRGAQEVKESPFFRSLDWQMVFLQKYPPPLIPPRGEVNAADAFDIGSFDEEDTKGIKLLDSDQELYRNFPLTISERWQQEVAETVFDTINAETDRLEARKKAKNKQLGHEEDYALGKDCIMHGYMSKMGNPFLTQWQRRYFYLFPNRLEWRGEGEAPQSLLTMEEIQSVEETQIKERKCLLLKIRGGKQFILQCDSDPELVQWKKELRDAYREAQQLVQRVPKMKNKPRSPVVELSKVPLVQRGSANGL
UniProt P28300, sequence (whole entry, looked up): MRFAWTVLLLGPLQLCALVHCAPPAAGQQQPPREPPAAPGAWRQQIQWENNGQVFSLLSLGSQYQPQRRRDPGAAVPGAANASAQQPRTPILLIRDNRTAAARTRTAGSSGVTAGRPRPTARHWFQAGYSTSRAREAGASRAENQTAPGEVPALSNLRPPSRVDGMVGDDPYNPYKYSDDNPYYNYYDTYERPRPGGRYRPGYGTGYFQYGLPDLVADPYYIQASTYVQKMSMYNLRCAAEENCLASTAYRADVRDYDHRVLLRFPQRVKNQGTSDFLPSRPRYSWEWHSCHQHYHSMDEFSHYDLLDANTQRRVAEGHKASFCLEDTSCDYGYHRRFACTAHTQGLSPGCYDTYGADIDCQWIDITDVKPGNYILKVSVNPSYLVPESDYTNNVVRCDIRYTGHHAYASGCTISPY

`COc1cc(N2CCC(N3CCN(C)CC3)CC2)ccc1Nc1ncc(Cl)c(Nc2ccccc2P(C)(C)=O)n1` has an IC50 of 1760 nM (ABCB1 (Homo sapiens, UniProt P08183); inhibitor).
The IC50 of `COc1ccc(-c2ccc3ncc4c(c3c2)n([C@@H]2CCN(C)CC2(F)F)c(=O)n4C)cn1` is reported as 195 ± 2 nM (IRAK4; enzyme activity, inhibitor).
`CNC(=O)c1ccccc1Nc1nc(Nc2ccc(CO)cc2)ncc1C1CC1` has an IC50 of 31.6 ± 3.56 nM (IRAK4; cell-based).
`CC(C)C[C@H](NC(=O)[C@H](CCc1ccccc1)NC(=O)CN1CCOCC1)C(=O)N[C@@H](Cc1ccccc1)C(=O)N[C@@H](CC(C)C)C(=O)[C@@]1(C)CO1` has an IC50 of 48 ± 5.38 nM (Psmb10/Psmb3 (Mus musculus, UniProt O35955+Q9R1P1); proteasome subunit activity; Ba/F3 BCR-ABL1 M351T; 1 h pulse).
For `COc1c(Cl)cccc1Nc1c(-c2ccncc2OC[C@@H]2COCCO2)[nH]c2c1C(=O)NCC2`, the IC50 was 340 nM (PRKD3 (Homo sapiens, UniProt O94806); kinase activity, inhibitor, TR-FRET; median value, with: ATP 2 mM).
For `c1ccc(CNc2nc(-c3ccccc3)nc3ccccc23)cc1`, the IC50 was 4200 ± 2300 nM (VCP; enzyme activity, inhibitor).
For `CC[C@H](C)[C@H](NC(=O)[C@H](CS)NC(=O)[C@H](CCC(=O)O)NC(=O)[C@H](C)NC(=O)[C@@H](NC(=O)[C@@H](N)CCCNC(=N)N)[C@@H](C)CC)C(=O)N[C@@H](CC(C)C)C(=O)NCC(=O)N[C@@H](CCSC)C(=O)O`, the IC50 was 13000 nM (HLA class I histocompatibility antigen, A alpha chain, allele A*30:02 (Homo sapiens, UniProt P04439); binding, competitor, radioligand competition; two days, room temperature, HLA-A*30:02).
For `Fc1ccc(-c2nc(-c3cccnc3)[nH]c2-c2ccncc2)cc1`, the IC50 was 852 ± 70.2 nM (TGFBR2 (Homo sapiens, UniProt P37173); inhibitor).
`COc1cccc2c(NCc3ccccc3)nc(N3CCN(C(C)=O)c4ccccc43)nc12` has an IC50 of 2700 ± 600 nM (VCP; enzyme activity, inhibitor).
`O=C1N[C@H](c2cncc(C#Cc3ccccc3)c2)[C@@H](c2ccccc2Cl)O1` gave an IC50 of ~0.3 nM (Metabotropic glutamate receptor 5 (Macaca mulatta, UniProt A0ACM8QRY8); receptor occupancy, PET; rhesus monkey, free plasma concentration).
With `CC[C@@H]1[C@H](F)C(=O)N[C@@H]1COc1nccc2cc(C(N)=O)c(OC)cc12` the IC50 was > 5000 nM (GRK2 (Homo sapiens, UniProt P25098); ATP probe binding, KiNativ profiling, refers to: BARK1 Lys2 probe site; THP-1 cell lysate).
`COc1ccc(-c2nc(NCc3ccccc3)c3ccc(Cl)cc3n2)cc1` has an IC50 of 25000 ± 11000 nM (VCP; enzyme activity, inhibitor).
With `O=C(O)c1ccc(NS(=O)(=O)c2ccc(Cl)c(Cl)c2)cc1F` the IC50 was > 63000 nM (17-beta-hydroxysteroid dehydrogenase 13 (Homo sapiens, UniProt Q7Z5P4); estradiol turnover, inhibitor, LC-MS; with: β-estradiol).
The IC50 of `c1ccc2c(Nc3ccc(N4CCOCC4)cc3)nc(N3CCOCC3)nc2c1` is reported as 57000 ± 15000 nM (VCP; enzyme activity, inhibitor).
`CC(=O)Nc1ccc(Nc2nc(-c3sc(N)nc3C)cs2)cc1` gave an IC50 of 950 nM (Protein-lysine 6-oxidase (Homo sapiens, UniProt P28300); enzyme activity; HEK-293T conditioned media).
`Clc1ccccc1CNc1nc(-c2ccccc2)nc2ccccc12` has an IC50 of 30000 ± 10000 nM (VCP; enzyme activity, inhibitor).
The IC50 of `COc1ccnc(CNC(=O)c2cnn(Cc3ccc(Cn4ccccc4=O)cc3)c2)c1F` is reported as > 40000 nM (F10 (Homo sapiens, UniProt P00742)).

A few entries again:
With `CC[C@@H]1[C@H](F)C(=O)N[C@@H]1COc1nccc2cc(C(N)=O)c(OC)cc12` the IC50 was > 5000 nM (GRK2 (Homo sapiens, UniProt P25098); ATP probe binding, KiNativ profiling, refers to: BARK1 Lys2 probe site; THP-1 cell lysate).
`COc1ccc(-c2nc(NCc3ccccc3)c3ccc(Cl)cc3n2)cc1` has an IC50 of 25000 ± 11000 nM (VCP; enzyme activity, inhibitor).
